Published values pooled from the literature.
A part holds a random share of what one study measured.

Series 1 — cell line: HEK-293T; observed: pseudovirus infection; organism: VSV pseudotyped with SARS-CoV-2 spike; tested at: 10 µM; time: 16 h; baseline: vehicle-treated
| Compound | GFP-positive cells [%] |
| --- | --- |
| COc1cc(C(=O)NS(=O)(=O)c2ccccc2C)ccc1Cc1cn(C)c2ccc(NC(=O)OC3CCCC3)cc12 | 86.5 |
| C[C@@](Cc1ccc(O)c(O)c1)(NN)C(=O)O | 93.5 |
| CC(=O)N[C@H]1[C@H]([C@H](O)[C@H](O)CO)OC(C(=O)O)=C[C@@H]1N=C(N)N | 84.4 |
| CN(Cc1cnc2nc(N)nc(N)c2n1)c1ccc(C(=O)N[C@@H](CCC(=O)O)C(=O)O)cc1 | 29.9 |

Series 2 — observed: enzyme activity; action: inhibitor; tested at: 20 µM; setting: hit confirmation
Target: Replicase polyprotein 1ab, main protease (rep, Severe acute respiratory syndrome coronavirus 2, UniProt P0DTD1)
| Structure (SMILES) | inhibition [%] |
| --- | --- |
| C=C(CC)C(=O)c1ccc(OCC(=O)O)c(Cl)c1Cl | -8.3 |
| O=C1OC2(c3ccccc31)c1cc(Br)c(O)c(Br)c1Oc1c2cc(Br)c(O)c1Br | 97.7 |
| Nc1nc2nc[nH]c2c(=S)[nH]1 | 34.6 |
| c1ccc2sc(SN3CCOCC3)nc2c1 | 99.8 |

Series 3 — action: inhibitor; tested at: 20 µM
Target: Replicase polyprotein 1ab, nsp13 helicase (rep, Severe acute respiratory syndrome coronavirus 2, UniProt P0DTD1)
| Compound | inhibition [%] |
| --- | --- |
| OC[C@H]1O[C@@H](Oc2ccc(O)cc2)[C@H](O)[C@@H](O)[C@@H]1O | 4.77 |
| Fc1ccc(C(c2ccccc2)(c2ccccc2F)n2ccnc2)cc1 (stereo not drawn) | 0.93 |
| CC(C)n1c(/C=C/[C@@H](O)C[C@@H](O)CC(=O)O)c(-c2ccc(F)cc2)c2ccccc21 (racemic) | 2.38 |
| O=C(NCCCCCCNC(=O)ON=C1CCCCC1)ON=C1CCCCC1 | 1.58 |
| NC(=O)CN1C[C@H](O)CC1=O | 7.82 |
| COc1ccc(COc2ccc(Cc3cnc(N)nc3N)cc2OC)cc1 | 4.27 |
| CCCCN1[C@@H]2CC[C@H]1CC(OC(c1ccc(F)cc1)c1ccc(F)cc1)C2 (stereo partly drawn) | 3.98 |
| c1ccc(CNc2ncnc3[nH]cnc23)cc1 | 1.75 |
| CCC(=O)O[C@]1(C(=O)CO)CC[C@H]2[C@@H]3CCC4=CC(=O)CC[C@]4(C)[C@H]3CC[C@@]21C | 2.3 |
| CCCCNC(=O)NS(=O)(=O)c1ccc(C)cc1 | -2.75 |
| CCn1cc(C(=O)O)c(=O)c2ccc(C)nc21 | 0.97 |
| NC(=O)c1ccc(-c2nc(-c3ccc4c(c3)OCCO4)c(-c3ccccn3)[nH]2)cc1 | 10.2 |
| COC(=O)C1=C(C)N(C)C(C)=C(C(=O)OC)C1c1ccc(C(F)(F)F)cc1 | -0.53 |
| C=C1/C(=C\C=C2/CCC[C@]3(C)[C@@H]([C@H](C)/C=C/[C@H](C)C(C)C)CC[C@@H]23)C[C@@H](O)C[C@@H]1O | -4.92 |
| CN1CCCCC1Cn1cc(C(=O)c2cc([N+](=O)[O-])ccc2I)c2ccccc21 (stereo not drawn) | 6.1 |
| COc1ccc(N2CCOCC2)c2sc(NC(=O)N3CCC(C)(O)CC3)nc12 | 7.58 |
| CO[C@H]1/C=C/O[C@@]2(C)Oc3c(C)c(O)c4c(O)c(c(/C=N/N=C/N5CCCCC5)c(O)c4c3C2=O)NC(=O)/C(C)=C\C=C\[C@H](C)[C@H](O)[C@@H](C)[C@@H](O)[C@@H](C)[C@H](OC(C)=O)[C@@H]1C | -3.67 |
| CC(C)c1cc(CNc2nc(Nc3cc(C4CC4)[nH]n3)cc(N3CCN(C)CC3)n2)on1 | 12.5 |
| c1ccc(N2CCN(Cc3nc4ccccc4[nH]3)CC2)nc1 | -0.28 |
| C[C@]12CC[C@@H]3c4ccc(OC(=O)c5ccccc5)cc4CC[C@H]3[C@@H]1CC[C@@H]2O | -1.36 |
| CCOCCOc1ccccc1C(N)=O | 3.74 |
| CN(C)c1cc(NC(=O)CNC(C)(C)C)c(O)c2c1C[C@H]1C[C@H]3[C@H](N(C)C)C(O)=C(C(N)=O)C(=O)[C@@]3(O)C(O)=C1C2=O | 12.7 |
| Cc1cc(C2CCCCC2)n(O)c(=O)c1 | -8.59 |
| Cc1ccc(CNc2ncnc3ccc(-c4ccc(CO)o4)cc23)o1 | 4.16 |
| CO[C@@]1(NC(=O)C2SC(=C(C(N)=O)C(=O)O)S2)C(=O)N2C(C(=O)O)=C(CSc3nnnn3C)CS[C@@H]21 (stereo partly drawn) | 8.07 |

Series 4 — method: protein binding microarray; form: double-stranded DNA, one strand shown; medium: in vitro; tested at: not given; baseline: not given; direction: higher = stronger binding
Target: Histone acetyltransferase KAT6A, both winged helices, GST fusion (KAT6A, Homo sapiens, UniProt Q92794, residues 1-181)
Setting: 8-mer, flanks averaged, mean of 2 arrays, mostly near background
Construct (chain): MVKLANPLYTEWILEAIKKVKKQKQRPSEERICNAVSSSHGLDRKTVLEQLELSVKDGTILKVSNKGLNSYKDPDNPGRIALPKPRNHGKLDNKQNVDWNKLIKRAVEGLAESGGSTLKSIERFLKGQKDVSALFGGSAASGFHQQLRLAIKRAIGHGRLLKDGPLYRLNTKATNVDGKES
| Strand | E-score |
| --- | --- |
| ACAACGAC | 0.0659 |
| GGACCAGA | -0.0672 |
| AGAACAGC | 0.11 |
| CGGGGACC | 0.151 |
| ATGGCTTC | -0.226 |
| AAGAAGGG | -0.232 |
| CTCTCGTC | -0.0791 |
| ACAGTGCA | -0.104 |

Series 5 — method: universal PBM; form: double-stranded DNA, one strand shown; medium: in vitro; tested at: not given; direction: higher = stronger binding
Target: Sal-like protein 4, full length isoform B (SALL4, Homo sapiens, UniProt Q9UJQ4-2, residues 1-616)
Setting: 8-mer, flanks averaged, mean of replicates
Residues (chain): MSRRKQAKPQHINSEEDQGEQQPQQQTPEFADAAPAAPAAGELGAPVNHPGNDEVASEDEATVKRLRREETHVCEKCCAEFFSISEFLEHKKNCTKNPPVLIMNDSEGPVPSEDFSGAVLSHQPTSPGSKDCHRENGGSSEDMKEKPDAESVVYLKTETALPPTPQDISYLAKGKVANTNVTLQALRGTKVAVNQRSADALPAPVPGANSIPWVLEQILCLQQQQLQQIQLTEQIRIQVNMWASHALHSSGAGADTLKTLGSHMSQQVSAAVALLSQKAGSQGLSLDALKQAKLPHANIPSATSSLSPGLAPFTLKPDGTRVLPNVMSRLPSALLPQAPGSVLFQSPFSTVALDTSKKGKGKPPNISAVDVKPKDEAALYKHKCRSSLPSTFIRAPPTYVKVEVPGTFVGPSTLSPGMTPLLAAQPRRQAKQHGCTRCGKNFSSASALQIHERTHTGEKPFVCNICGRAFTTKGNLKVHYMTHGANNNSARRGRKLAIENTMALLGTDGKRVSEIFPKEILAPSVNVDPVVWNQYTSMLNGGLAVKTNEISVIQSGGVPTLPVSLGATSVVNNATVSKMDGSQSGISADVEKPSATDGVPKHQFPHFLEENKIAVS
| Strand | E-score |
| --- | --- |
| TAGGCATA | 0.146 |
| ACTGTGTC | 0.00686 |
| CGTGTACC | -0.227 |
| CTACCCGC | -0.271 |
| ATTCCAAC | 0.0436 |
| AGCCGTCC | -0.137 |
| ACCGCGAG | -0.259 |
| GAAGAACC | -0.24 |

Series 6 — method: RNA Bind-n-Seq; form: RNA; medium: in vitro; tested at: 365 nM; baseline: no-protein control; direction: higher = stronger binding
Target: RNA binding protein fox-1 homolog 2, RRM domain, GST-SBP tag (RBFOX2, Homo sapiens, UniProt O43251-10, residues 100-194)
Setting: natural RNA segment, single round, ends assumed
Constant ends, left off below: GGGAGUUCUACAGUCCGACGAUC … UGGAAUUCUCGGGUGCCAA
Residues (chain): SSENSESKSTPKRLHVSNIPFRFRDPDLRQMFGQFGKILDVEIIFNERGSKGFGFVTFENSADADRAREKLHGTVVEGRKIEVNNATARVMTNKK
| Strand | RBNS enrichment (R) |
| --- | --- |
| CAAAUUGUCCUACUGACGUUGAAAGCAAACCUUUGUUCAUUCCCAGGGCACUAGAAUGAUCUUUAGCCUUGCUUGGAUUGAACUAGGAGAUCUUGACUCUGAGGAGAGCC | 0.64 |
| GCCACCUUGGCUUCCAAUAUGGCAAGAGGGUGCUGGGAGAAGGUGAAGAUCAGUCUAAGCUGCCACGGUGAUGAGACCUUCUCAUUAUGUAACUCUUGAUGGCAUUUCCC | 0.892 |
| GGUGUUCAACACACGAAAUGCUCAAUAAACAUCAGGCUGUCCCCUCCUGGGGCAGGCCUUGAAACGGUGCGUGUGAGUAAUGAGAGGUUUAUAAUCCAGCUGUGUCUUAU | 0.428 |
| AUUACUGAUGUGAUAUUCUGUUGCUUUACAGUUACAGUUGAUGUUUGGGGAUCGAUGUGCUCAGCCAAAUUUCCUGUUUGAAAUAUCAUGUUAAAUUAGAAUGAAUUUAU | 0.876 |
| UAAUUAUGAAAAAUGGUCUGUUCAUAAUUGGUAGGUGCCUUUUGUGAGCAGGGAGCAUAAUUAUUGGUUUAUUAUGGUAAUUAUGGUGAUUUUUUAAAUAUCAUGUAAUG | 0.324 |
| AUUUGGAGUAUCUGGUACUAGCUAAGAAAUAAUUCUAUAAUUGAGUUUUGUACUCACCAUAUAUGGAUCAUUCCUCAUGUAUAAUGUGCCCCAAAUGCAGCUUCAUUUUC | 0.25 |
| CCUUGGCUUGGCUGGUAUAAGUGUGUCAUCCGGACCACCAAACUUCAGAUUAAGCUGUUACUGAGUGAGACACGAGAAGAAUGGUGUUCGCUGGUCUGUCGGCUGUGUUC | 0.891 |
| UUCUAUUCAUUUUCAGUUAUAUGAUUGAUUUACUUAUGCCAAGAUUCUGUCACUGUCAGUUAUUUAAUGAGUGUUUUUUCAGGGUCUGUUUUAAGAUCAUUAUUUGAUAG | 0.515 |

Repeated from above (series 5):
| Strand | E-score |
| --- | --- |
| ATTCCAAC | 0.0436 |
| CGTGTACC | -0.227 |
| AGCCGTCC | -0.137 |
| GAAGAACC | -0.24 |
| TAGGCATA | 0.146 |
| CTACCCGC | -0.271 |
